Published values gathered from unrelated publications.
Protocols differ between the studies behind these lines.
Target: Uncharacterized serine/threonine-protein kinase SBK3 (SBK3, Homo sapiens, UniProt P0C264)

Cc1c[nH]c2nccc(-c3ccc(C(=O)N[C@@H]4c5c(F)cc(C(F)F)cc5C[C@@H]4O)cn3)c12
remaining binding (binding, competition with immobilised ligand; 3 µM): 23%

CC(C)=CC1OC(C)(C)C2C=C3C(=O)C(Cl)=CC(O)C3C3C(O)C4OC4C(=O)C132 (stereo not shown)
remaining binding (cell-free assay, competition with immobilised ligand; 10 µM): 100%

C=CC(=O)N1CCCC(n2c(=O)c3ncccc3n(Cc3ccc(Oc4ccccc4)cc3)c2=O)C1 (stereo not shown)
remaining binding (cell-free assay, competition with immobilised ligand; 1 µM): 83%

Cc1cnc2nc1Nc1cccc(c1)COC/C=C/COCc1cc(ccc1OCCN1CCOCC1)N2
remaining binding (binding, competition with immobilised ligand; 0.1 µM): 100%

Cc1ccc(-c2c(/C=C(\C#N)C(=O)NC(C)C)n(CCCO)c3ncnc(N)c23)cc1
remaining binding (cell-free assay, competition with immobilised ligand; 1 µM): 95%

CNC(=O)C1CCN(c2cc(C)c(F)cc2NC(=O)c2ccc(-c3cc(O)ccc3C)c(C)c2)CC1
remaining binding (binding, competition with immobilised ligand; 1 µM): 95%

COc1c(Cl)cccc1Nc1c(-c2ccncc2C#C[C@@]2(C)CCCN2C(=O)/C=C/CN(C)C)[nH]c2c1C(=O)NCC2
remaining binding (binding, competition with immobilised ligand; 3 µM): 92%

COc1cc(Nc2nc(C)cc(-c3cnn4nc(OC)ccc34)n2)cc(C(F)(F)F)c1
remaining binding (binding, competition with immobilised ligand; 1 µM): 87%

Nc1ncc2c(n1)-c1c([nH]c3ccc(C4=CCOCC4)cc13)CCC2
remaining binding (binding, competition with immobilised ligand; 1 µM): 100%

CNC1C[S+]2CC[S+]3CC[S+](C1)[Ru-4]321([N]=C=S)[n]2c3ccc(OC)cc3c3c4c(c5cc(F)c[n+]1c5c32)C(=O)NC4=O (stereo not shown)
remaining binding (KinomeScan; 0.1 µM; baseline: untreated): 94%

COc1cc(Nc2nccc(-c3cnn4nc(OC)ccc34)n2)cc(C(F)(F)F)c1
remaining binding (binding, competition with immobilised ligand; 1 µM): 100%

C=CC(=O)N1CCc2ccc(-n3c(=O)ccc4cnc5ccc(-c6cnn(C)c6)cc5c43)cc21
remaining binding (KINOMEscan; 1 µM; baseline: DMSO control): 100%

CCN1CCN(Cc2ccc(C(=O)Nc3ccc(C)c(NCc4cnc5[nH]ccc5c4OC)c3)cc2C(F)(F)F)CC1
remaining binding (binding, competition with immobilised ligand; 1 µM): 100%

A few entries again:
Cc1cnc2nc1Nc1cccc(c1)COC/C=C/COCc1cc(ccc1OCCN1CCOCC1)N2
remaining binding (binding, competition with immobilised ligand; 0.1 µM): 100%
